Results pooled from the literature.
Lines come from different studies, so protocols differ.
Organism: Staphylococcus aureus

SMILES | assay | system | setting | MIC
CN[C@H](CC(C)C)C(=O)N[C@H]1C(=O)N[C@@H](CC(N)=O)C(=O)N[C@H]2C(=O)N[C@H]3C(=O)N[C@H](C(=O)N[C@H](C(=O)NCC(N)=O)c4cc(O)cc(O)c4-c4cc3ccc4O)[C@H](O)c3ccc(c(Cl)c3)Oc3cc2cc(c3O[C@@H]2O[C@H](CO)[C@@H](O)[C@H](O)[C@H]2O[C@H]2C[C@](C)(NCc3ccc(OCc4cn(CC(=O)N[C@H](C(=O)N[C@@H](CCN)C(=O)N[C@H]5CCNC(=O)[C@H]([C@@H](C)O)NC(=O)[C@H](CCN)NC(=O)[C@H](CCN)NC(=O)[C@H](CC(C)C)NC(=O)[C@@H](CC(C)C)NC(=O)[C@H](CCN)NC5=O)[C@@H](C)O)nn4)c(OC)c3)[C@H](O)[C@H](C)O2)Oc2ccc(cc2Cl)[C@H]1O |  | MSSA ATCC 29213 |  | 0.093 µM
CC[C@H](C)[C@H](NC(=O)[C@H](Cc1c[nH]c2ccccc12)NC(=O)[C@H](CCCCN)NC(=O)[C@H](CC(C)C)NC(=O)[C@@H](NC(=O)[C@@H](NC(=O)CNC(=O)[C@H](CCCCN)NC(=O)[C@H](Cc1c[nH]cn1)NC(=O)[C@H](CCCCN)NC(=O)[C@H](Cc1c[nH]c2ccccc12)NC(=O)[C@H](C)NC(=O)[C@H](CC(C)C)NC(=O)[C@H](CO)NC(=O)[C@@H](NC(=O)[C@H](Cc1ccc(O)cc1)NC(=O)[C@H](CCCCN)NC(=O)[C@H](CCC(N)=O)NC(=O)CNC(=O)[C@H](CCCCN)NC(=O)[C@@H](NC(=O)[C@H](C)NC(=O)[C@H](CC(C)C)NC(=O)[C@H](Cc1ccccc1)NC(=O)[C@H](CCC(N)=O)NC(=O)[C@@H](NC(=O)[C@H](CC(C)C)NC(=O)[C@H](CCCCN)NC(=O)[C@H](CCSC)NC(=O)[C@H](Cc1ccccc1)NC(=O)[C@H](C)NC(=O)[C@H](C)NC(=O)[C@@H](N)CCSC)[C@@H](C)CC)[C@@H](C)O)C(C)C)[C@@H](C)O)[C@@H](C)CC)C(=O)N[C@@H](CC(N)=O)C(N)=O |  | EMRSA 12845 | 24 h, 37 °C | 32 µg/mL
CC(C)C[C@H]1NC(=O)[C@H](Cc2c[nH]c3ccccc23)NC(=O)[C@@H](C)NC(=O)[C@@H]2CSC(N2)[C@H](C(C)C)NC(=O)[C@@H](C(C)C)NC(=O)[C@H](C(C)C)NC1=O |  | NCTC 8325, Mueller Hinton broth | 21 h, 37 °C | 12.5 µg/mL
CC[C@H]1OC(=O)[C@H](C)[C@@H](OC(=O)Cc2ccc3c(c2)OCO3)[C@H](C)[C@@H](O[C@@H]2O[C@H](C)C[C@H](N(C)C)[C@H]2O)[C@](C)(OC)C[C@@H](C)C(=O)[C@H](C)[C@@H](O)[C@]1(C)O |  | BAA-976 msr(A) |  | < 1 µg/mL
CC(C)C[C@@H]1NC(=O)[C@@H](CC(C)C)NC(=O)[C@H](CCN)NC(=O)[C@@H](NC(=O)[C@H](CCN)NC(=O)[C@@H](NC(=O)CCCCN=[N+]=[N-])[C@@H](C)O)CCNC(=O)[C@H]([C@@H](C)O)NC(=O)[C@H](CCN)NC(=O)[C@H](CCN)NC1=O | broth microdilution | MSSA ATCC 29213, cation-adjusted Mueller-Hinton broth | 20 to 24 h, 37 °C, 0.002% polysorbate 80 | > 16 µg/mL
CC(C)CCCCCCCCC/C=C/C(=O)N[C@@H](CC(N)=O)C(=O)N[C@H]1CNC(=O)[C@@H]2CCCN2C(=O)[C@H](C(C)C)NC(=O)[C@@H](CN)NC(=O)CNC(=O)[C@H](CC(=O)O)NC(=O)CNC(=O)[C@H](CC(=O)O)NC(=O)[C@H](CC(=O)O)NC(=O)[C@H]2CCCCN2C1=O | broth microdilution | BR-VRSA strain 880, Mueller-Hinton broth, Mg2+ 10 mg/L | 16 h, added: Ca2+ 2.5 mM | 2 µg/mL
Cc1ccc2nc(C)c(C(=O)NCc3ccccc3)n2c1 | microbial growth, broth dilution |  |  | > 128 µM
C#CCOc1ccc(CN[C@@]2(C)C[C@H](O[C@H]3[C@H](Oc4c5cc6cc4Oc4ccc(cc4Cl)[C@@H](O)[C@@H](NC(=O)[C@@H](CC(C)C)NC)C(=O)N[C@@H](CC(N)=O)C(=O)N[C@H]6C(=O)N[C@H]4C(=O)N[C@H](C(=O)N[C@H](C(=O)O)c6cc(O)cc(O)c6-c6cc4ccc6O)[C@H](O)c4ccc(c(Cl)c4)O5)O[C@H](CO)[C@@H](O)[C@@H]3O)O[C@@H](C)[C@H]2O)cc1OC | broth microdilution | VISA LIM-2, tryptic soy broth | 20 to 24 h, 37 °C, 0.002% polysorbate 80 | 16 µg/mL
CC[C@H](C)[C@H](NC(=O)[C@H](CCCCN)NC(=O)[C@H](Cc1c[nH]c2ccccc12)NC(=O)[C@H](Cc1c[nH]c2ccccc12)NC(=O)[C@H](CCCCN)NC(=O)[C@H](CCCCN)NC(=O)[C@H](CCCCN)NC(=O)[C@H](Cc1c[nH]c2ccccc12)NC(=O)[C@H](CCCCN)NC(=O)[C@H](CCCCN)NC(=O)[C@H](Cc1c[nH]c2ccccc12)NC(=O)[C@H](CCCCN)NC(=O)[C@H](CCCCN)NC(=O)[C@@H](NC(=O)[C@@H](NC(=O)[C@H](CCCCN)NC(=O)[C@@H](N)CCCNC(=N)N)[C@@H](C)CC)[C@@H](C)CC)C(=O)N[C@@H](Cc1c[nH]c2ccccc12)C(=O)N[C@@H](Cc1c[nH]c2ccccc12)C(=O)N[C@@H](CCCCN)C(N)=O | broth microdilution | MRSA 109 |  | 1.25 µg/mL
CCCCCCCCCCCCCC(=O)N[C@H]1C(=O)N[C@@H](CN)C(=O)N[C@@H](CO)C(=O)N[C@@H](Cc2ccc(O)cc2)C(=O)O[C@H]1C |  | SH1000 | added: lysophosphatidylethanolamine, molar ratio 2 | 2 µg/mL
CC1CCN(C(=O)c2cccc(NC(=O)Nc3cc(Cl)cc(Cl)c3)c2)CC1 | checkerboard, item: ceftobiprole | CRB, PBP4 overexpressor | 25 µM | > 64 µg/mL
CCn1c(-c2ccc(F)cc2)c(-c2ccc(F)cc2)n(CCOC)c1=[Se] | microbial growth, broth dilution | ATCC700699 VISA | 24 h, drug-resistant strain | > 40 µM
CC[C@H](C)[C@H](NC(=O)[C@@H](CCCNC(=N)N)NC(=O)[C@H](CCCNC(=N)N)NC(=O)[C@H](CCC(=O)O)NC(=O)[C@H](Cc1c[nH]c2ccccc12)NC(=O)[C@H](CCCNC(=N)N)NC(=O)[C@@H]1CCCN1C(=O)[C@H](CCCNC(=N)N)NC(=O)[C@@H]1CCCN1C(=O)[C@H](CC(C)C)NC(=O)[C@H](Cc1ccc(O)cc1)NC(=O)[C@@H]1CCCN1C(=O)[C@@H]1CCCN1C(=O)[C@H](CCCCN)NC(=O)[C@H](CC(=O)O)NC(=O)[C@@H](N)C(C)C)C(=O)N[C@@H](Cc1ccc(O)cc1)C(=O)N[C@@H](CC(N)=O)C(=O)N[C@H](CCCNC(=N)N)C(N)=O | broth microdilution | DSM 6247 | 18 h, 37 °C, 25% MHB2 | > 128 µg/mL
Cc1cc(C)c2nc3c(Br)cc(Br)c(O)c3nc2c1 | broth microdilution | MRSA-2 | 16 h, 37 °C | 0.1 µM
CC(C)[C@H](NC(=O)[C@H](CCCNC(=N)N)NC(=O)[C@H](Cc1ccccc1)NC(=O)[C@H](CS)NC(=O)[C@@H](N)Cc1c[nH]c2ccccc12)C(=O)N[C@@H](CS)C(=O)N[C@@H](Cc1ccccc1)C(=O)N[C@@H](CCCCN)C(=O)NCC(=O)N[C@@H](Cc1ccccc1)C(=O)N[C@@H](CS)C(=O)N[C@@H](Cc1ccc(O)cc1)C(=O)N[C@@H](CCCNC(=N)N)C(=O)N[C@@H](Cc1ccccc1)C(=O)N[C@@H](CS)C(=O)O | broth microdilution | ATCC 29213, Mueller-Hinton broth | 16 to 20 h, 37 °C | 141 µg/mL
CC[C@H](C)[C@H](N)C(=O)N[C@@H](CCCNC(=N)N)C(=O)N[C@H](C(=O)N[C@@H](Cc1c[nH]c2ccccc12)C(=O)N[C@@H](CCCCN)C(=O)N[C@@H](CCCCN)C(=O)N[C@H](C(=O)N[C@H](C(=O)N[C@@H](CCCNC(=N)N)C(=O)N[C@@H](CCCCN)C(=O)N[C@@H](Cc1c[nH]c2ccccc12)C(=O)N[C@@H](CCCCN)C(=O)N[C@@H](C)C(=O)N[C@H](C(=O)N[C@@H](Cc1c[nH]c2ccccc12)C(=O)N[C@@H](Cc1c[nH]cn1)C(N)=O)[C@@H](C)CC)C(C)C)[C@@H](C)CC)C(C)C | broth dilution | ATCC 25923, Mueller-Hinton broth | 24 h, 37 °C | 25 µM
CCCCCCC#Cc1cncc(-c2nnc(SCc3cc([N+](=O)[O-])cc([N+](=O)[O-])c3)n2C)c1 | broth microdilution | Mu50 MRSA VISA | 18 to 24 h, 37 °C | > 64 µg/mL
C#CCOc1ccc(CN[C@@]2(C)C[C@H](O[C@H]3[C@H](Oc4c5cc6cc4Oc4ccc(cc4Cl)[C@@H](O)[C@@H](NC(=O)[C@@H](CC(C)C)NC)C(=O)N[C@@H](CC(N)=O)C(=O)N[C@H]6C(=O)N[C@H]4C(=O)N[C@H](C(=O)N[C@H](C(=O)NCC(N)=O)c6cc(O)cc(O)c6-c6cc4ccc6O)[C@H](O)c4ccc(c(Cl)c4)O5)O[C@H](CO)[C@@H](O)[C@@H]3O)O[C@@H](C)[C@H]2O)cc1OC | broth microdilution | VISA LIM-2, tryptic soy broth | 20 to 24 h, 37 °C, 0.002% polysorbate 80 | 4 µg/mL

For quick reference, copied from above:
SMILES | assay | system | setting | MIC
CC1CCN(C(=O)c2cccc(NC(=O)Nc3cc(Cl)cc(Cl)c3)c2)CC1 | checkerboard, item: ceftobiprole | CRB, PBP4 overexpressor | 25 µM | > 64 µg/mL
CC[C@H](C)[C@H](NC(=O)[C@@H](CCCNC(=N)N)NC(=O)[C@H](CCCNC(=N)N)NC(=O)[C@H](CCC(=O)O)NC(=O)[C@H](Cc1c[nH]c2ccccc12)NC(=O)[C@H](CCCNC(=N)N)NC(=O)[C@@H]1CCCN1C(=O)[C@H](CCCNC(=N)N)NC(=O)[C@@H]1CCCN1C(=O)[C@H](CC(C)C)NC(=O)[C@H](Cc1ccc(O)cc1)NC(=O)[C@@H]1CCCN1C(=O)[C@@H]1CCCN1C(=O)[C@H](CCCCN)NC(=O)[C@H](CC(=O)O)NC(=O)[C@@H](N)C(C)C)C(=O)N[C@@H](Cc1ccc(O)cc1)C(=O)N[C@@H](CC(N)=O)C(=O)N[C@H](CCCNC(=N)N)C(N)=O | broth microdilution | DSM 6247 | 18 h, 37 °C, 25% MHB2 | > 128 µg/mL
